Experimental data of several laboratories.
Each numbered part is a random draw from the data of one study; scales do not carry over between parts.

Sample 1
Target: Prothrombin, mature alpha-thrombin (F2, Homo sapiens, UniProt P00734)
Technique: aptamer microarray, sandwich
Form: DNA with 2'F-ANA
Sample: in vitro
Concentration: 200 nM
Notes: whole 15-mer aptamer, many near background
Together with: Cy3 exosite-II aptamer, 400 nM
Direction: higher = stronger binding
Endpoint: mean fluorescence intensity
Sequence: GGTTGGTGTGGTTGG
2'F-ANA at 5 6 9 12 14: 48 a.u.
2'F-ANA at 7 8 13: 643 a.u.
2'F-ANA at 1 3 5 7 12 13 15: 99.2 a.u.
2'F-ANA at 2 3 4 6 7 9 11 12: 634 a.u.
2'F-ANA at 1 4 5 9 10 11 13 14: 47 a.u.
2'F-ANA at 2 3 4 5 8 10 12 13 14: 49 a.u.
2'F-ANA at 1 2 3 4 6 7 9 11 12 15: 224 a.u.

Sample 2
Target: Interferon regulatory factor 5, full length, phosphomimetic (IRF5, Homo sapiens, UniProt Q13568-2, residues 1-514, S451D/S453D/S456D/S462D)
Technique: protein-binding microarray
Form: double-stranded DNA, one strand shown
Sample: in vitro
Concentration: 940 nM top
Notes: 60-bp whole probe
Together with: salmon DNA 0.4 mg/ml
Relative to: random background probes
Direction: higher = stronger binding
Endpoint: fitted relative affinity
Constant ends, left off below: GCCTAGCAC … GTCTTGATTCGCTTGACGCTGCTG
TCACTTCTGGTCTTCTGACTGTGCTAG: 0.582 z-score
GACTCTTCAGCACTCGGGTCGTGCTAG: 0.00492 z-score
TCACCTTTCAGTTTTCCACTGTGCTAG: 1.44 z-score
TTAGGTCTCGATTTCGGTTAGTGCTAG: 4.4 z-score
GACGGTTTCCTTTTCTTGACGTGCTAG: 2.34 z-score
GGCGGACTGGGGTATCGGGACGTGCTA: 0.186 z-score
GACGAACTGGGGCATCGAGACGTGCTA: -0.04 z-score

Sample 3
Target: RING finger protein unkempt homolog, zinc fingers 1-6, GST-SBP tag (UNK, Homo sapiens, UniProt Q9C0B0, residues 30-357)
Chain of UniProt Q9C0B0 (30-357, looked up): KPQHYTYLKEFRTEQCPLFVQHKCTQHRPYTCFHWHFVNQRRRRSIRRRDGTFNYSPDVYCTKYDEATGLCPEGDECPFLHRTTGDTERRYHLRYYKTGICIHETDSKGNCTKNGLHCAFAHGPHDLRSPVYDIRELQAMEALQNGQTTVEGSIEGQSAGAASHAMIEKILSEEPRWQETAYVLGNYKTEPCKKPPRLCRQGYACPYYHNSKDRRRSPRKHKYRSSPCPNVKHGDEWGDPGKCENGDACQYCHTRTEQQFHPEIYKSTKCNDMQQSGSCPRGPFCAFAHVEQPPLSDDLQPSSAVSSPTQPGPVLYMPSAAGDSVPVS
Technique: RNA Bind-n-Seq
Form: RNA
Sample: in vitro
Concentration: not given
Notes: RNA with constant flanks, human and mouse sites, ends assumed
Relative to: input RNA pool
Direction: higher = stronger binding
Endpoint: bound/input enrichment
Constant ends, left off below: GGGAGUUCUACAGUCCGACGAUC … CAACAGAGGAUUGAGCAUCA
CACAGAUCCUCCCUGUCAUGCCACAUUUCACUGAUUGGAAUGUGGAAAUGGAAAAGGAAUUUAGGAUGUGCAUUUUCACCUGAGGUUUCCCUGCAUCCCUGCAGUGCCAAAGCCCCACCU: 0.189 ratio
UGGUGAGGGCCCCAAAGCCCAUAUCCGGAAGCUAGCUGAGUGCAUCCGCUGGUCCUAUGGAGCAGGCGUCGUCCUCCGACUUGGCAACAUCGCUCGGCUGGAGCUGAACUACUGCAUUCC: 0.0409 ratio
CCAGUAGAGGGCAGCGAAAUUGGCUCAGAGACGCUGUCCAUUUCUUCUUCCCGCGACUCCACCCUGCGGAGAAAGGGCAAUAUCAUUCUAAUCCCUGAAAGAAGCAACAGCCCCGAAAAC: 0.296 ratio
AAGCUGCUAUUUGAAACGAGAGAUAUAAGUCUAAUUAAACAGUAUGUUCAGCGACAAUGUAUGAAGCUUCUGGAAGGAAAGGCCAGCAUACAAGACUUUAUCUUUGCCAAGGAAUACAGA: 0.319 ratio
CCACUCCCAGAAUCAGAAGUGACUCUGGGCAAGGACGUGGUUAUACUUCCAGAAACAAAGGUGGCUGAGUUUAACAAUGUGACUCCACUUUCAGAAGAAGAGGUAACCUCAGUCAAGGAC: 0.123 ratio

Further values, each from its own experiment
PhoQ, residues 284 288 289 292 302 303 SASVAL
fold induction (PhoP, residues 12 14 15 18 19 NIMAP (Escherichia coli, UniProt P23836); Sort-seq, refers to: YFP reporter; E. coli; PhoQ-PhoP variant library, together with: 10 µM Mg2+; relative to: high Mg2+ state, higher = stronger signaling): 0.855
